Measurements gathered from unrelated publications.
Each line is one published result; not all experiments were run side by side. ± gives the spread as reported.
T1: itself; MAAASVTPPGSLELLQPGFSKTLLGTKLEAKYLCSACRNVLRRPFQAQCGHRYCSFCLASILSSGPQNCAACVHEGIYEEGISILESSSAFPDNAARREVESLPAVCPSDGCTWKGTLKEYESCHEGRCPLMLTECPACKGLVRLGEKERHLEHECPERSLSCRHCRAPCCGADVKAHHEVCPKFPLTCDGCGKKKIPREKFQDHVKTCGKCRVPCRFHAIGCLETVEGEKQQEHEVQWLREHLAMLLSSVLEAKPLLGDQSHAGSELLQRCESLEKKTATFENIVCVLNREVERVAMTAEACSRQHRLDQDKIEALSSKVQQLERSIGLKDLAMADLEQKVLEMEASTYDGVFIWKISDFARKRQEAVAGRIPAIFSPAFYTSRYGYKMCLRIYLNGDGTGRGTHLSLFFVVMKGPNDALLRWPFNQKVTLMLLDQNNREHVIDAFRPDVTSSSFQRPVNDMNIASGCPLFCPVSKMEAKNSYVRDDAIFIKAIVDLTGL
T2: itself; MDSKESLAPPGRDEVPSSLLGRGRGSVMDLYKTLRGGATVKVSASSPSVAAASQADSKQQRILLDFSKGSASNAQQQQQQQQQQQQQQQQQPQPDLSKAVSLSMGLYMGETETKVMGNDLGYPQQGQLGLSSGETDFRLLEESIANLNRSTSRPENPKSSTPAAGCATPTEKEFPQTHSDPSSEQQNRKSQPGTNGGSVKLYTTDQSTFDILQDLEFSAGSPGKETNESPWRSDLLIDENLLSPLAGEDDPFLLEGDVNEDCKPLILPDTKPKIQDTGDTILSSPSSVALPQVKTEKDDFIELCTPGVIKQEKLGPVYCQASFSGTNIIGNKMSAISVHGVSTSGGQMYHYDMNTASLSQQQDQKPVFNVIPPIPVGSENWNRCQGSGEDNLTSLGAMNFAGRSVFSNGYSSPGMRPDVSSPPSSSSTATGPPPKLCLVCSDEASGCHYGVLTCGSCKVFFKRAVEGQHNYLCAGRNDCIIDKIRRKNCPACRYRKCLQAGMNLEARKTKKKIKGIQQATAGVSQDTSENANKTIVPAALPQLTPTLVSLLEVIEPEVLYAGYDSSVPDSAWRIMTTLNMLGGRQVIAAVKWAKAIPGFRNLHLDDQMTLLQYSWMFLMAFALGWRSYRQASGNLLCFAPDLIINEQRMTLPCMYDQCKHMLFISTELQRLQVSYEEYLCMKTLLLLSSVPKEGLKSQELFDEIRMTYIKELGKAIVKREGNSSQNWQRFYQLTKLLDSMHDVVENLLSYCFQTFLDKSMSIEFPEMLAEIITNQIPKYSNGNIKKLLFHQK
B1: FUS 2-110 (Homo sapiens, UniProt P35637); sequence looked up; chain ASNDYTQQATQSYGAYPTQPGQGYSQQSSQPYGQQSYSGYSQSTDTSGYGQSSYSSYGQSQNTGYGTQSTPQGYGSTGGYGSSQSSQSSYGQQSSYPGYGQQPAPSSTS
UniProt Q5S007, sequence (whole entry, looked up): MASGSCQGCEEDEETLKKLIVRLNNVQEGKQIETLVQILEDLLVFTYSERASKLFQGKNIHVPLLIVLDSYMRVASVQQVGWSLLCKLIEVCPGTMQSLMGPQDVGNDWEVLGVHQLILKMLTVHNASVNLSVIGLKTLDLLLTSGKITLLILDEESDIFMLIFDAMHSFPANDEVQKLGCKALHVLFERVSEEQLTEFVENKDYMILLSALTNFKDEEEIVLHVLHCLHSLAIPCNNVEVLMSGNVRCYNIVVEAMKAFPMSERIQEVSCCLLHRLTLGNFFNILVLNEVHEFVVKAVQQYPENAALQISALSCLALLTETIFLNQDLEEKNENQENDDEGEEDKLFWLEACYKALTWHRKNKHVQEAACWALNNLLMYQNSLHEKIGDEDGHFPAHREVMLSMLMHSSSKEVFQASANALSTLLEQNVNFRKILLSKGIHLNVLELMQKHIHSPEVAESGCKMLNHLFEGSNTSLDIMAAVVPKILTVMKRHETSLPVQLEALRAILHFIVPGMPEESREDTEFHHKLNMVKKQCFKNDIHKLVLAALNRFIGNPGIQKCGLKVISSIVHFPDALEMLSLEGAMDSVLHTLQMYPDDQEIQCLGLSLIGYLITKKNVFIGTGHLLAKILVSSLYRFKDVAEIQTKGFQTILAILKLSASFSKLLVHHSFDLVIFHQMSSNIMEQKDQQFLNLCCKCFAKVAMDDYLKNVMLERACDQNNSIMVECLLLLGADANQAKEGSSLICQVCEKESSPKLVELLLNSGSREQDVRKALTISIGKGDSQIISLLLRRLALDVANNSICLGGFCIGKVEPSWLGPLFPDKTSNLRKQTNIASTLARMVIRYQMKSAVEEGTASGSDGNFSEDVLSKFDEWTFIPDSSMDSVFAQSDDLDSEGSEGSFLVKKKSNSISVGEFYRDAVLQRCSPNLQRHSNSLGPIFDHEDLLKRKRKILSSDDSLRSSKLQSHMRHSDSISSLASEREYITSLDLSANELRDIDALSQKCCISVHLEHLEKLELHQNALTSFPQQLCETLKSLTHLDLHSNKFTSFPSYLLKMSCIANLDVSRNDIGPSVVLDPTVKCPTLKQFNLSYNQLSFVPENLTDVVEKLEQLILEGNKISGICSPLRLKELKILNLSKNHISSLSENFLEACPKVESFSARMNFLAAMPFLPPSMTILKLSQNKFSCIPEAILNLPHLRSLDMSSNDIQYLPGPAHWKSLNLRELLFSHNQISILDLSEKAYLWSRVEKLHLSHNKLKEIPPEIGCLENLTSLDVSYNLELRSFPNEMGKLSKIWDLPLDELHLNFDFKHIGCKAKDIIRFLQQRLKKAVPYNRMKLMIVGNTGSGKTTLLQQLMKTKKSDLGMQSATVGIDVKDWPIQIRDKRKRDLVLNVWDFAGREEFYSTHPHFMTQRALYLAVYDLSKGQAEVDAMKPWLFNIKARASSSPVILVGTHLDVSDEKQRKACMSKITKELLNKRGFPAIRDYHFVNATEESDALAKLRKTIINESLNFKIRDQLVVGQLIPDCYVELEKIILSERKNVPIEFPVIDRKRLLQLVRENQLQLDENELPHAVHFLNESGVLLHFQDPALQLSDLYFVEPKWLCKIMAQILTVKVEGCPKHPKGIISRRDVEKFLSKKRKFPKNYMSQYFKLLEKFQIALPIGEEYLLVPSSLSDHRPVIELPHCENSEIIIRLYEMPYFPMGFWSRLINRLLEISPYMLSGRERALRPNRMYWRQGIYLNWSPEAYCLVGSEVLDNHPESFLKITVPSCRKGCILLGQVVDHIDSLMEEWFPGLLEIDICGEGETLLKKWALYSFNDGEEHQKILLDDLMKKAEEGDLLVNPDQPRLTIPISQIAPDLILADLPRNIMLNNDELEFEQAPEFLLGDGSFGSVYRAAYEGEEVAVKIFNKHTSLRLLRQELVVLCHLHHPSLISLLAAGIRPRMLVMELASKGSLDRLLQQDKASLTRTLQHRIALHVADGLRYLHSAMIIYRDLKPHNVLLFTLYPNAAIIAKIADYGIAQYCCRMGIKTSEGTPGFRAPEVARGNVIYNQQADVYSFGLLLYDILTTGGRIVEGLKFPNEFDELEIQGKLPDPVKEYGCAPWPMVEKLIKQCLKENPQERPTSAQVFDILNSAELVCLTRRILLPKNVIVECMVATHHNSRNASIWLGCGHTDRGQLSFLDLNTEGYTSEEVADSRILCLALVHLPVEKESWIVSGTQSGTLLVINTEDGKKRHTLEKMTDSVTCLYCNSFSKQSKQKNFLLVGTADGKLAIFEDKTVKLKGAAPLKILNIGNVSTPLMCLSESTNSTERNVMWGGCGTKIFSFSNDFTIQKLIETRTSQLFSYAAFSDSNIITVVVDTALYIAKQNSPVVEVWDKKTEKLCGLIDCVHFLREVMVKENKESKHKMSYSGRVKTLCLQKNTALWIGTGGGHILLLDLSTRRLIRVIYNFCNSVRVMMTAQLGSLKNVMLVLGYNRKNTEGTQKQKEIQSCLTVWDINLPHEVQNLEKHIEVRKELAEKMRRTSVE
UniProt Q8MIP0, sequence (whole entry, looked up): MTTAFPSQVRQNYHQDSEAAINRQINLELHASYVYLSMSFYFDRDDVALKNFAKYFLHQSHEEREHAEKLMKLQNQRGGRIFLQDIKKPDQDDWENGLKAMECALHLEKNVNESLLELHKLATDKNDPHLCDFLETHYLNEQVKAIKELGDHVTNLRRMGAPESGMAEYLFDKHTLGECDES
UniProt Q9HC16, sequence (whole entry, looked up): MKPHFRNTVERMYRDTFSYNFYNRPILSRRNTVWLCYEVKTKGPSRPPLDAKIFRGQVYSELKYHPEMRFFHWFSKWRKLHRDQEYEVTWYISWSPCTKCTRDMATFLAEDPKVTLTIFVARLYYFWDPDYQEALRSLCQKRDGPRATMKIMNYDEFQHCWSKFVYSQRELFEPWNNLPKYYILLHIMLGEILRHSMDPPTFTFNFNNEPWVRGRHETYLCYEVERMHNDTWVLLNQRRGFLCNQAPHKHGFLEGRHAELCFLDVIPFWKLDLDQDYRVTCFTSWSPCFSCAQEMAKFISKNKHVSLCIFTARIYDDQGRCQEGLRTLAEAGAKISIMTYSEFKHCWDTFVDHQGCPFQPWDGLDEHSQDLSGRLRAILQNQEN
UniProt O95999, sequence (whole entry, looked up): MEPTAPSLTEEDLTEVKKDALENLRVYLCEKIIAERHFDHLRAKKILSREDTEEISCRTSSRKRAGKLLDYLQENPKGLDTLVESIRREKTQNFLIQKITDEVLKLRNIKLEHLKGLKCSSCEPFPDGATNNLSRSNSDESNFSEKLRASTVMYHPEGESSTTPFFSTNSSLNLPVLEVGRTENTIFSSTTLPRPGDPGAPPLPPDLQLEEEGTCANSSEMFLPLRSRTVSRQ
UniProt P03023, sequence (whole entry, looked up): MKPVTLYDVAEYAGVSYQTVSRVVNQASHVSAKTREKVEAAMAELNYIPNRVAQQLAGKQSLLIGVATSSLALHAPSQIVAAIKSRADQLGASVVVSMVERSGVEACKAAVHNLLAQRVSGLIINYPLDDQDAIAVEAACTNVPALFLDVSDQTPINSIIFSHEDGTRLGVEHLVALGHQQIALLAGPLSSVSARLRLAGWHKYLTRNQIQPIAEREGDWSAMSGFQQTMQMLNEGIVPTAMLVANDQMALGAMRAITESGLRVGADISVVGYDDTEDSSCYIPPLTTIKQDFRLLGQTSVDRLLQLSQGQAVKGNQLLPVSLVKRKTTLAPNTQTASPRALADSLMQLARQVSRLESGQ

| Substance | partner | test | system | conditions | how to read | quantity | result |
| --- | --- | --- | --- | --- | --- | --- | --- |
| LRRK2 (Homo sapiens, UniProt Q5S007) | itself | in vitro autophosphorylation |  | dimer fraction | reference: LMW monomer fraction, higher = more phosphorylation | autophosphorylation | 8.4 fold |
| HLA-DRA/HLA-DRB1 heterodimer, on cells (Homo sapiens) | itself | single-particle fluorescence imaging |  | 37 °C |  | fraction of 2-particle spots | 15 ± 5% |
| gerBC fragment (Bacillus subtilis) | itself | analytical ultracentrifugation |  | monomer-dimer self-association |  | Kd | 2.2 mM |
| EGFR fragment (Homo sapiens) | itself | specific kinase activity, poly Glu:Tyr substrate | solution |  |  | dimerization KD | 200 nM |
| STAT5A full length, exon-4 deleted isoform (Homo sapiens) | itself | Stat5 reporter | HEK | 24 h, added: PRL 1 µg/mL | reference: one response element, higher = more tetramerization | luciferase activity | 3.5 fold |
| A1cf fragment (Rattus norvegicus) | itself | AUC |  |  |  | percent dimer | 5% |
| TPDYLMQLMNDKKLMSSLPNFSGIFNHLERLLDEEISRARKDMYNDTLNGSTEK (Qki 14-67 C35S/V52A (Mus musculus, UniProt Q9QYS9)) | itself | CD thermal melting |  | 50 µM |  | melting temperature | 60 °C |
| PYCARD (Homo sapiens, UniProt Q9ULZ3) | itself | real-time NMR |  | 501 µM |  | backward rate constant | 0.05 h |
| STEP61 (Rattus norvegicus) | itself | pNPP dephosphorylation |  | cortex, aged rats | reference: young rats, higher = more activity | phosphatase activity | 47.5% |
| IgA J chain-deficient (Mus musculus) | itself | native gel or EMSA | serum | densitometry |  | monomer to dimer ratio | 10 times |
| APOBEC3G (Homo sapiens, UniProt Q9HC16) | itself | optical tweezers |  | two-step binding model |  | rate constant k-2 | 2.8e-05 s⁻¹ |
| CD3E (Homo sapiens, UniProt P07766) | itself | TCCD microscopy | PM1 |  | higher = more association | association quotient | 28.4 ± 4.3 |
| TRAF2 (Homo sapiens, UniProt Q12933) | T1, itself | flow cytometric FRET | HeLa | live cells, two-step FRET | higher = more FRET | FRET1 | 3.9 MFI |
| CDH1 fragment (Gallus gallus) | itself | dual pipette assay |  | 0.5-60 min |  | separation force | 200 nN |
| RYR1 fragment (Oryctolagus cuniculus) | itself | FRET | myotubes | in cells, puncta |  | FRET efficiency | 3.6 ± 0.4% |
| CENPA (Homo sapiens, UniProt P49450) | itself | co-IP |  |  | reference: total CENP-molecule in input, higher = more unbound | unbound fraction | 22.5% |
| lacI full length, tetramer (Escherichia coli, UniProt P03023) | itself | lacZ reporter |  |  | reference: between strains, higher = stronger repression | repression | < 10 fold |
| EPHA2 N483L/R485E (Homo sapiens) | itself | PIE-FCCS | COS7 | no ligand, live cells | higher = more dimerization | cross-correlation fraction | 0.15 |
| ferritin apo, 15% H 85% L (Equus caballus, UniProt Q8MIP0) | itself | AUC |  |  |  | percent dimer | 3% |
| BCL10, Alexa488 label (Homo sapiens, UniProt O95999) | itself | confocal fluorescence microscopy |  | wild type, full length |  | critical concentration of polymerization | 0.5 µmol/L |
| ClpX fragment T66C/P388C, Cys66-Cys388 disulfide (Escherichia coli) | itself | GFP-ssrA degradation |  | reduced with dithiothreitol, added: ClpP | reference: oxidized enzyme, higher = larger KM | KM increase | 20 fold |
| CRYGS N15D/Q121E/N144D (Homo sapiens) | itself | SEC-MALS |  |  |  | subunits per oligomer | 2 |
| PYCARD (Homo sapiens, UniProt Q9ULZ3-2) | itself | real-time NMR |  | 704 µM |  | backward rate constant | 0.001 h |
| Sh C96S/C301S/C308S/C505T/I470V (Drosophila melanogaster) | itself | paired-pulse electrophysiology |  | I470V |  | recovery time from inactivation | 33 ms |
| COL15A1 trimerization domain (Homo sapiens) | itself | GuHCl equilibrium transitions |  | extrapolated to water, calculated |  | trimer midpoint concentration | 119 pM |
| Nr3c1 (Mus musculus, UniProt P06537) | T2, itself | number and brightness microscopy | 3134-GR KO | at array, in cells, added: Cort 100 nM | reference: monomeric control, higher = more oligomerised | molecular brightness | 3.15 fold |
| B1 (FUS 2-110) | itself | hydrogel binding assay |  |  |  | binding | binds |
| HEXIM1 L287R/L294R (Homo sapiens) | itself | FCS | U2OS | in nucleoplasm |  | anomaly coefficient α | > 0.8 |
| amyloid beta fragment | itself | SDS-PAGE immunoblot |  | tetramers, lipidated apoE4 | reference: sample without apoE, higher = more tetramer remaining | relative band intensity | 235% |

For quick reference, copied from above:
| Substance | partner | test | system | conditions | how to read | quantity | result |
| --- | --- | --- | --- | --- | --- | --- | --- |
| APOBEC3G (Homo sapiens, UniProt Q9HC16) | itself | optical tweezers |  | two-step binding model |  | rate constant k-2 | 2.8e-05 s⁻¹ |
| Sh C96S/C301S/C308S/C505T/I470V (Drosophila melanogaster) | itself | paired-pulse electrophysiology |  | I470V |  | recovery time from inactivation | 33 ms |
| CENPA (Homo sapiens, UniProt P49450) | itself | co-IP |  |  | reference: total CENP-molecule in input, higher = more unbound | unbound fraction | 22.5% |
| LRRK2 (Homo sapiens, UniProt Q5S007) | itself | in vitro autophosphorylation |  | dimer fraction | reference: LMW monomer fraction, higher = more phosphorylation | autophosphorylation | 8.4 fold |
| STAT5A full length, exon-4 deleted isoform (Homo sapiens) | itself | Stat5 reporter | HEK | 24 h, added: PRL 1 µg/mL | reference: one response element, higher = more tetramerization | luciferase activity | 3.5 fold |
